# Measured values gathered from unrelated publications.
# Each numbered part is a random draw from the data of one study; scales do not carry over between parts. Changes are numbered by the printed parent chain.

# Study 1
# Target: Prothrombin, mature alpha-thrombin (F2, Homo sapiens, UniProt P00734)
# Technique: aptamer microarray, sandwich
# Form: DNA with 2'F-ANA
# Medium: in vitro
# Tested at: 200 nM
# Setting: whole 15-mer aptamer, many near background
# Together with: Cy3 exosite-II aptamer, 400 nM
# Direction: higher = stronger binding
Oligonucleotide,mean fluorescence intensity [a.u.]
GGTTGGTGTGGTTGG (2'F-ANA at 1 3 10 13 15),170
GGTTGGTGTGGTTGG (2'F-ANA at 1 2 3 4 5 8 9 10 12),49.6
GGTTGGTGTGGTTGG (2'F-ANA at 1 2 3 5 6 7 9 12 14 15),49.4
GGTTGGTGTGGTTGG (2'F-ANA at 1 3 4 7 11 14 15),84.1

# Study 2
# Target: ABI1, truncated, D143A, DHFR fusion (Arabidopsis thaliana)
# Technique: DHFR PCA, deep sequencing
# Medium: yeast
# Setting: methotrexate growth selection, single substitutions
# Together with: (+)-ABA 4.8 µM
# Baseline: wild-type fitted maximum
# Direction: higher = stronger binding
# Starting sequence: PYL1, truncated, DHFR fusion (Arabidopsis thaliana); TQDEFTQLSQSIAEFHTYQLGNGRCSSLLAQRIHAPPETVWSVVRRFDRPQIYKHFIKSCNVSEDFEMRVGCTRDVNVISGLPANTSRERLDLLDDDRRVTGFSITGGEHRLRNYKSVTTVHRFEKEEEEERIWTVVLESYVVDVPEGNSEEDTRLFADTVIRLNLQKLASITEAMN
Substitution,relative binding score [%]
L112W,-7.13
A175Y,51.5
T6V,77.9

# Study 3
# Target: Interferon regulatory factor 5, full length, phosphomimetic (IRF5, Homo sapiens, UniProt Q13568-2, residues 1-514, S451D/S453D/S456D/S462D)
# Technique: protein-binding microarray
# Form: double-stranded DNA, one strand shown
# Medium: in vitro
# Tested at: 940 nM top
# Setting: 60-bp whole probe
# Together with: salmon DNA 0.4 mg/ml
# Baseline: random background probes
# Direction: higher = stronger binding
# All sequences stand within: GCCTAGCAC … GTCTTGATTCGCTTGACGCTGCTG
Oligonucleotide,fitted relative affinity
TTAGGTATCATTTTCCTTTAGTGCTAG,3.34 z-score
GTAGGTTTCGGGTATCGGTTAGTGCTA,10.6 z-score
ATAGAACTGAGTATCGATTAGTGCTAG,4.16 z-score
GACGGACTGGGTATCGGGAAGTGCTAG,0.737 z-score
GACGGTATCGGGTGTCGGGACGTGCTA,4.96 z-score

# Single results of other studies
Substance,target,assay,test system,setting,scale,quantity,result
"PhoQ, residues 284 288 289 292 302 303 SNSSNI","PhoP, residues 12 14 15 18 19 LHHVQ (Escherichia coli, UniProt P23836)","Sort-seq, item: YFP reporter",E. coli,"PhoQ-PhoP variant library, together with: 10 µM Mg2+","baseline: high Mg2+ state, higher = stronger signaling",fold induction,10

# Repeated from above (study 1):
Oligonucleotide,mean fluorescence intensity [a.u.]
GGTTGGTGTGGTTGG (2'F-ANA at 1 3 10 13 15),170
GGTTGGTGTGGTTGG (2'F-ANA at 1 2 3 4 5 8 9 10 12),49.6
